Measured values collected from several papers.
A part holds a random share of what one study measured. Positions count from the first letter of the parent shown.

Set 1
Target: Histone acetyltransferase KAT6A, winged helix 1, GST fusion (KAT6A, Homo sapiens, UniProt Q92794, residues 1-85)
Method: protein binding microarray
Form: double-stranded DNA, one strand shown
Medium: in vitro
Concentration: not given
Notes: 8-mer, flanks averaged, mean of 2 arrays, mostly near background
Relative to: not given
Reading: higher = stronger binding
Construct (chain): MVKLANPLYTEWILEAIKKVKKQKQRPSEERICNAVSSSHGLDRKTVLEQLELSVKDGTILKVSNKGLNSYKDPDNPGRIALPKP
Oligonucleotide	E-score
CACGCGCG	0.457
GAGGAGCA	0.0503
GCACGGAC	0.28
AGGTGATC	-0.238
CCCATAAA	-0.164
ACTCCTGC	-0.182
AGGGACTG	-0.0644
CTCTAGAG	-0.0322

Set 2
Target: Sal-like protein 4, full length isoform B (SALL4, Homo sapiens, UniProt Q9UJQ4-2, residues 1-616)
Method: universal PBM
Form: double-stranded DNA, one strand shown
Medium: in vitro
Concentration: not given
Notes: 8-mer, flanks averaged, mean of replicates
Reading: higher = stronger binding
Oligonucleotide	E-score
CTGTGGAA	-0.0625
GAGCTCCA	-0.231
AAGCACCA	-0.148
ATGCGGGC	-0.207
CGCCAAAC	-0.102
ACAGTCAT	0.14
AATACGAA	0.28
ATCGACAA	0.121
ATGGGTCG	-0.232
AGTGGTCA	-0.105
CTAGGAGC	-0.268
CTTTCGCC	-0.0244

Set 3
Target: CCND2, cyclin fold, Cln2 fusion (human)
Method: yeast growth competition, sequencing
Medium: yeast
Notes: weak parent motif
Relative to: not given
Reading: higher = stronger binding
Parent: SAMHD1 docking peptide (human); ASKSRVQLFKDDP
Change	normalised enrichment score
D12Q	-0.0748
D11M	0.0221
F9G	-0.271
S4R	0.308
D11Q	-0.465
D12T	0.135
D12E	0.397
D12C	-0.37
Q7N	0.158

Single results of other studies
Substance	target	assay	test system	setting	how to read	endpoint	result
PhoQ, residues 284 288 289 292 302 303 SVHLDV	PhoP, residues 12 14 15 18 19 SMASL (Escherichia coli, UniProt P23836)	Sort-seq, item: YFP reporter	E. coli	PhoQ-PhoP variant library, added: 10 µM Mg2+	relative to: high Mg2+ state, higher = stronger signaling	fold induction	8.29

For quick reference, copied from above (set 2):
Oligonucleotide	E-score
GAGCTCCA	-0.231
AAGCACCA	-0.148
ATGCGGGC	-0.207
